Published values from different studies.
Each numbered part is a random draw from the data of one study; scales do not carry over between parts. Changes are numbered by the printed parent chain.

Study 1
Target: CCNA1, cyclin fold, Cln2 fusion (human)
Method: yeast growth competition, sequencing
Sample: yeast
Notes: weak parent motif
Relative to: not given
Reading: higher = stronger binding
Starting sequence: ORC1 docking peptide (human); PRARKRLELGNLG
Variant	normalised enrichment score
PRVRKRLELGNLG [A3V]	0.205
KRARKRLELGNLG [P1K]	0.708
PRARLRLELGNLG [K5L]	0.189
PRARRRLEFGNLG [K5R L9F]	1.46
PRARKRLELGNLQ [G13Q]	0.711
PRARKRLELGNLC [G13C]	0.452
PRARKRLELWNLG [G10W]	0.682
PRARKKLELGNLG [R6K]	0.492

Study 2
Target: Sal-like protein 4, full length isoform B (SALL4, Homo sapiens, UniProt Q9UJQ4-2, residues 1-616)
Method: universal PBM
Form: double-stranded DNA, one strand shown
Sample: in vitro
Concentration: not given
Notes: 8-mer, flanks averaged, mean of replicates
Reading: higher = stronger binding
Strand	E-score
GCCAGCGA	-0.322
AATGAGCG	0.104
AATATTTC	0.439
ATCCCCCG	-0.0606
CTTACGGC	-0.236
AATAACTC	0.261
ACCTCCTG	-0.084
CCACAAAG	-0.0105
ACGCAGCT	-0.214
AGATATTC	0.179

Single results of other studies
Molecule	target or system	assay	test system	conditions	scale	quantity	result
NAA10 (Homo sapiens, UniProt P41227)	NAA15 (Homo sapiens, UniProt Q9BXJ9)	cross-linking MS	–	hits only	–	interaction screen	cross-linked
PhoQ, residues 284 288 289 292 302 303 AMDMFI	PhoP, residues 12 14 15 18 19 LYHSL (Escherichia coli, UniProt P23836)	Sort-seq, refers to: YFP reporter	E. coli	PhoQ-PhoP variant library, added: 10 µM Mg2+	relative to: high Mg2+ state, higher = stronger signaling	fold induction	0.344
SYF2 (Homo sapiens, UniProt O95926)	CRNKL1 (Homo sapiens, UniProt Q9BZJ0)	cross-linking MS	cell fractions	added: DMTMM	–	cross-linked residues	E187 to K288
